Measurements pooled from the literature.
Target: D(2) dopamine receptor (DRD2, Homo sapiens, UniProt P14416)
Chain of UniProt P14416 (whole entry, looked up): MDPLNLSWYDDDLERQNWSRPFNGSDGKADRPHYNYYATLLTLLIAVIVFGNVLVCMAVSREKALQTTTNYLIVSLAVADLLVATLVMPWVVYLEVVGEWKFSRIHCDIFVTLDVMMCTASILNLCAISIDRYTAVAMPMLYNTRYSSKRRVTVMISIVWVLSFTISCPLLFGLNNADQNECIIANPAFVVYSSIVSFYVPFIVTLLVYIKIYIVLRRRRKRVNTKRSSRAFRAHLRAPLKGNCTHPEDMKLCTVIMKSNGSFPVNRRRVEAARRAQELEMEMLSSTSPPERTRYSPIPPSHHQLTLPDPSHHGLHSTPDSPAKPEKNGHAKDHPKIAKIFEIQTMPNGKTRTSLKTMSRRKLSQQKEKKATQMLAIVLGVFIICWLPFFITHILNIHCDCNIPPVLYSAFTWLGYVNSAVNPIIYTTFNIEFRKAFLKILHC

With `NS(=O)(=O)c1ccc(CCNCc2ccc(-c3ccc(Cl)cc3)o2)cc1` the inhibition was 23.1% (enzyme activity, inhibitor; 10 µM).
The inhibition of `COCC(=O)N1CCc2cc(-c3csc(NC(=O)c4cc(OC)cc(OC)c4)n3)ccc21` is reported as -3% (10 µM).
With `COC(=O)c1ccccc1NC(=O)CN1CCN(c2cccc(C(F)(F)F)c2)CC1` the inhibition was 3.5% (enzyme activity, inhibitor; 10 µM).
The inhibition of `Brc1ccccc1-c1nnc(CSc2nnnn2-c2ccccc2)o1` is reported as -13% (ligand displacement, radioligand; 10 µM).
`Cn1ccc2cc(-n3c(=O)[nH]c4sc5c(c4c3=O)CCCC5)ccc21` has an inhibition of 14% (radioligand binding; 10 µM).
For `Cc1[nH]nc2c1N=C(c1ccccc1Cl)c1cnc(N3CCOCC3)cc1N2`, the inhibition was 0% (10 µM, human off-target panel).
`COc1cc(CNCC(O)c2ccccc2)cc(Cl)c1OCC(N)=O` (stereo not drawn) has an inhibition of 8.63% (enzyme activity, inhibitor; 10 µM).
`COc1ccc(S(=O)(=O)N2CCc3ccccc3C2)cc1N1CCN(C(=O)c2ccc(F)cc2C(F)(F)F)CC1` gave an inhibition of -4.4% (ligand displacement, radioligand; 1 µM).
`CC1Cc2ccccc2N1C(=O)CN1CCN(Cc2ccccc2)CC1` (stereo not drawn) has an inhibition of 69% (ligand displacement, radioligand; 10 µM).
`COc1ccc(-c2csc3ncnc(NCCCN4CCN(c5ccccc5)CC4)c23)cc1` has an inhibition of 62.4% (enzyme activity, inhibitor; 10 µM).
The inhibition of `C[Si](C)(C)C[C@@H](CN)CC(=O)O` is reported as -4% (ligand displacement, radioligand; 75 µM).
With `c1ccc(OC[C@H]2CN(CCN3CCc4ccccc43)CCO2)nc1` the inhibition was 32.1% (ligand displacement, radioligand; 10 µM).
`C[Si]1(C[C@H](CN)CC(=O)O)CCCC1` has an inhibition of 3% (ligand displacement, radioligand; 70 µM).
`COc1cc(CNCCc2ccc(F)cc2)cc(Cl)c1OCC(N)=O` has an inhibition of 27.9% (enzyme activity, inhibitor; 10 µM).
`O=C1c2sc(-c3ccc(N4CCC(CO)CC4)nc3F)nc2CCN1c1cccnc1` has an inhibition of 5% (ligand displacement, radioligand; 1 µM).

Some of these lines once more:
The inhibition of `C[Si](C)(C)C[C@@H](CN)CC(=O)O` is reported as -4% (ligand displacement, radioligand; 75 µM).
With `c1ccc(OC[C@H]2CN(CCN3CCc4ccccc43)CCO2)nc1` the inhibition was 32.1% (ligand displacement, radioligand; 10 µM).
